Results gathered from unrelated publications.
Each numbered part is a random draw from the data of one study; scales do not carry over between parts. Positions count from the first letter of the parent shown.

Block 1 — method: protein-binding microarray; molecule type: double-stranded DNA, one strand shown; matrix: in vitro; concentration: 940 nM top; setting: 60-bp whole probe; together with: salmon DNA 0.4 mg/ml; reference: random background probes; reading: higher = stronger binding; endpoint: fitted relative affinity; constant ends, left off below: GCCTAGCAC … GTCTTGATTCGCTTGACGCTGCTG
Target: Interferon regulatory factor 5, full length, phosphomimetic (IRF5, Homo sapiens, UniProt Q13568-2, residues 1-514, S451D/S453D/S456D/S462D)
TTTGGACTGGGGACTGGGTTAGTGCTA: -0.207 z-score
TTCACTTTCTTTACTTCACTGTGCTAG: 2.75 z-score
TCCTCTTTCACTGCTCCCCACGTGCTA: 2.31 z-score
AATGATTGGTTGAACATGAAGTGCTAG: 0.00431 z-score
AAGTTTTTATTTTCTGAATGGTGCTAG: 1.65 z-score
TTAGGACCGCTTTTCCTTTAGTGCTAG: 0.035 z-score
TTTTTTTTTTACTTCGGGTGGTGCTAG: 1.09 z-score
GACGATTTCAGTTTCGAGAAGTGCTAG: 4.56 z-score
TCATATTTAAGAACTATGACTGTGCTA: 0.114 z-score
TCATCTTTTTTGTTCCAACTGTGCTAG: 1.58 z-score
GACGATTCCAGTTCCGAGACGTGCTAG: 0.914 z-score
TTATATCTGTGTTATTAAATTGTGCTA: 0.595 z-score
GACGGTTTCGGACTGGGGATGTGCTAG: 5.52 z-score
TTAGAAATCGGGACTGGATTAGTGCTA: -0.398 z-score
GACTGTATCGGTTTCGGGACGTGCTAG: 6.08 z-score
GACGGCCTCCTTTTCCTGACGTGCTAG: 0.369 z-score
GACGATATCTGTCTCGAGACGTGCTAG: 0.837 z-score
GACGGACTGCTACCGCTGACGTGCTAG: -0.641 z-score
GACGATTTCAGAATCGAGACGTGCTAG: -0.0338 z-score
AGCAAATTATATCTTATATCGTGCTAG: 0.245 z-score
TGGGCTCTAGGTTCTCTGAAGGTGCTA: -0.498 z-score
GACGTTATCGGGTTTCGAGACGTGCTA: 1.73 z-score
TTAGATATCTGGTATCGATTAGTGCTA: 5 z-score
TTAGTTCTGAGTCTTCCCTTGTGCTAG: 0.224 z-score
GTTTTACTTTCTATCTCTGTGTGCTAG: 3.67 z-score

Block 2 — method: competition protein-binding microarray; molecule type: double-stranded DNA, one strand shown; matrix: in vitro; concentration: 2 µM; together with: Pho4 competitor, 0.05 µM; reading: higher = stronger binding; endpoint: fluorescence intensity; constant ends, left off below: … GTCTTGATTCGCTTGACGCTGCTG
Target: Centromere-binding protein 1, full length, His-tagged (CBF1, Saccharomyces cerevisiae, UniProt P17106, residues 1-351)
Chain of UniProt P17106 (whole entry, looked up): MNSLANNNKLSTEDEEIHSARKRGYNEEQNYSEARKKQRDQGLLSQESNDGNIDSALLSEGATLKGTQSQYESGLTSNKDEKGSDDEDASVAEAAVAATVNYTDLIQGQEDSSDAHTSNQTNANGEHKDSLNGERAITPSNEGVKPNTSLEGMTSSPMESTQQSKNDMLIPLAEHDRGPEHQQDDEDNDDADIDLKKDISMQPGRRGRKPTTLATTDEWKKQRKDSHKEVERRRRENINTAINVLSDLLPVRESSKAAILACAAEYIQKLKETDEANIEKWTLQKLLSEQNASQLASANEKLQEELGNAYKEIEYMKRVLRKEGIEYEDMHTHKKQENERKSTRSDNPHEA
Setting: whole 60-bp probe, lowest competitor level
GTCTTGTCTCATTTTCACGTGCTGTTCCCCACTTCA: 988 a.u.
TACGAAAGATGGAAACACATGCAGAGAATGTGGTCT: 119 a.u.
GCTGCTGCTGCGAGTCACGGGCTCTGTTTACTACTA: 272 a.u.
TCTGACCCAGAATGGATACGTCCATACCGTAAGGAC: 56.2 a.u.
TGCGCAACAACTTGCGTCGTGGGTGTATGTCTAGAA: 53.1 a.u.
GTTATAAGTGCTTTTCTCGTGCAAATCCCTGACACT: 85.3 a.u.
AAAGCGGTAATTTTTCACGTGGGCTCACATATCTAT: 862 a.u.
TTTCTCTTTGAGGTTCACGTTCACTTCTGCTACCAT: 77.4 a.u.
GAAAGTACGAATTACCACGTCACTGTCATTTAGGTT: 86.6 a.u.
CGACTTTTTTCTTTTCACCTGCAGCTTGAGCCAAAC: 85.1 a.u.
AAATTACTAAGTTGGCACGTGGGTGACGCCGTATGA: 1160 a.u.
CTAACGAAGGTTTGTTACGTGGGTGACAAGCCAAGT: 70.7 a.u.
CGGGGTTAAGTTTGAGACGTGGGTGGCTTGCAGCAG: 77.1 a.u.
CTTCTGTAAATTTTTCACGTGATTTGACGCGCCCCG: 4110 a.u.
TTGCTCACTTTCTAATACGTGCAAACCTTTACAAGC: 71.9 a.u.
AAAGCGGTAATTTGTAATGTGGGTGCAGATATCTAT: 77.2 a.u.
CGTCCTAGTGATTGGCCGGTGGGTGCCATGAGGAAG: 72.7 a.u.
TCATACATGTCATTGCACATGAGCATTGTAACCGGT: 117 a.u.
CTAACGAAGGTTTGGTAGGTGGGTGACAAGCCAAGT: 57.8 a.u.
CATACCCAACCTTGTTATGTGGGTGAAGATATTTGT: 74.5 a.u.
AAAGCGGTAATTTGTACTGTGGGTGCAGATATCTAT: 79.1 a.u.
GCATTGCATTGCTGGCACGTTTTTGTGCAGCATGAA: 221 a.u.

Block 3 — method: protein binding microarray; molecule type: double-stranded DNA, one strand shown; matrix: in vitro; concentration: not given; reference: not given; reading: higher = stronger binding; endpoint: E-score
Target: Histone acetyltransferase KAT6A, both winged helices, GST fusion (KAT6A, Homo sapiens, UniProt Q92794, residues 1-181)
Setting: 8-mer, flanks averaged, mean of 2 arrays, mostly near background
Target sequence (chain): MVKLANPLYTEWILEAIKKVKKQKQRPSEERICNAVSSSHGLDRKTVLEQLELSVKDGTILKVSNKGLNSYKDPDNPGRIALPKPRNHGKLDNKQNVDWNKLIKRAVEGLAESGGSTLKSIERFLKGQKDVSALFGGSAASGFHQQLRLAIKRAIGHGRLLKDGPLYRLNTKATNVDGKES
AAGAGGAG: -0.142
GGGATATA: -0.108
ACCTGGCC: -0.117
GAACCTCC: -0.102
GGACGACA: -0.0159
AAGATGAC: -0.115
GATACCAC: 0.0278
CCTTCCGC: 0.239
ACAAGACG: 0.0801
ACACGGGC: 0.205
CAGAGCTC: -0.0507
GTTCCCAA: -0.0685
AACTTCAT: -0.0864
CCCACCAC: -0.178
GGAATAAC: 0.0345
ACTCTTTC: -0.101
CATTAAGC: -0.0418
GGAAAAAC: 0.0767
AATAAGTC: -0.16
ACACGAAT: -0.0279

Block 4 — method: RNA Bind-n-Seq; molecule type: RNA; matrix: in vitro; concentration: 1 µM; setting: whole 134-nt RNA, ends assumed; together with: 150 mM KCl; reference: input library; reading: higher = stronger binding; endpoint: log2 enrichment
Target: Ras GTPase-activating protein-binding protein 1, C-terminal RGG region (G3BP1, Homo sapiens, UniProt Q13283)
Chain of UniProt Q13283 (whole entry, looked up): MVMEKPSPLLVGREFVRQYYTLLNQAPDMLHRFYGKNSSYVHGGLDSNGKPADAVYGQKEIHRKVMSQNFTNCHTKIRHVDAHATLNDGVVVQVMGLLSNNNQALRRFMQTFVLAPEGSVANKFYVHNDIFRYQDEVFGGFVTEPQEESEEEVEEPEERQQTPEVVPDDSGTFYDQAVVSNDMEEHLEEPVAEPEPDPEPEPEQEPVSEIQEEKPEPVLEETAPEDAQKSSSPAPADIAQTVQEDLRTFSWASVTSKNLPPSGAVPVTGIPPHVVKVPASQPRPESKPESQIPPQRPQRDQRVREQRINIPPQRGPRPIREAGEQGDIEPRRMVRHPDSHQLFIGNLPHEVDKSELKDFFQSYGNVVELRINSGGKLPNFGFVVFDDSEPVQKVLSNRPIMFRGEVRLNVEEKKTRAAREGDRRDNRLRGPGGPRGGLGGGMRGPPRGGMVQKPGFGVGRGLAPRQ
Constant ends, left off below: GGGAGUUCUACAGUCCGACGAUC … UGGAAUUCUCGGGUGUCAAGG
CUCCAGAAAGCAGUGGGGCCUGAGAUCACCAAGACAGACCUGGUCCCUGCCUUCCAGAACCUGAUGAAAGACUGUGAGGCCGAGGUGAGG: -1.21
UGGUUCUGGCAUUUAUGACCCUUGUGAAAAAGAAGCCACUGAUGCUAUUGGGCAUCUAGACAGACAGCAACGGGAAGAUAUCACACAGAG: -1.41
AGUCCUGUGCUACACAUCGUAUGUACCGAAUCGGGUUUUUUUGGGUUUUUGGGAGGGAAAGUAUUAUGUUACGCCGUUCGGAUCUGCACU: 0.402
UUCCUCAAGUCCUGUGCUACACAUCGUAUGUACCGAAUCGGAGGAGGAGGAAAGUAUUAUGUUACGCCGUUCGGAUCUGCACUUCCAGCA: -1.63
ACCAUGCAGGUGGGCAUCUUUGGGAAGUGGGUCAAGGGGGGGAUAGGGAGGGGGGUAACACUUUGGGAACAGGUGGUCCCAGGUCGUUUC: -0.374
AGUCCUGUGCUACACAUCGUAUGUACCGAAUCGGGAAAGGGUUUGGGUUUUUUUGGGAAAGUAUUAUGUUACGCCGUUCGGAUCUGCACU: 0.433
UUUAGUGACUUUGGAUGAAGUAACUGAAGAGGAUGAAGACUCUCUGGCGGAUUUUAACAACCUUAAAGAAGAGCUUAAUUUUGUUACUGU: -2.13
UCAAGUCCUGUGCUACACAUCGUAUGUACCGAAUCGGGGAAAGGGAAAGGAAAGGAAAGUAUUAUGUUACGCCGUUCGGAUCUGCACUUC: -1.7
CUCAAGUCCUGUGCUACACAUCGUAUGUACCGAAUCGGGGCGGGCGGGGCGGGAAAGUAUUAUGUUACGCCGUUCGGAUCUGCACUUCCA: 1.29
ACCAUGCAGGUUGGCAUCUUUGGGAAGUGGGGCAAGGGGGGGAUAGGGAGGGGGGUAACACUUUGGGAACAGGUGGUCCCAGGUCGUUUC: -1.3
CAAGUCCUGUGCUACACAUCGUAUGUACCGAAUCGGGGUUUGGGUUUGGGUUUGGGAAAGUAUUAUGUUACGCCGUUCGGAUCUGCACUU: 2.36
CUGUGCUACACAUCGUAUGUACCGAAUCGGGGAAAAAAAGGGGAAAAAAAGGGGUUUGGGGAAAGUAUUAUGUUACGCCGUUCGGAUCUG: 0.0417
ACUGAGGUACUGCCCUCCCCUGCCCCCUACCCUCUCCCUUGUCCCUCUACCCCGUUCCUCCCCUUCCCUCCAUUCCCUUUCCCCAACCUG: -0.0208
UCAGAGGAAUAUCCUUGACUUCCCCCAGCAUGUUUCCCCCUCCAAGGACAUCCGGACAGCCAGCACAGAGGCCGACAAGAAGCUCUCUGA: -0.535

Block 5 — method: protein-binding microarray; molecule type: hairpin DNA; matrix: in vitro; concentration: not given; reference: not given; reading: higher = stronger binding; endpoint: median fluorescence
Target: Runt-related transcription factor 3, Runt domain (RUNX3, Homo sapiens, UniProt Q13761, residues 53-186)
Chain of UniProt Q13761 (53-186, looked up): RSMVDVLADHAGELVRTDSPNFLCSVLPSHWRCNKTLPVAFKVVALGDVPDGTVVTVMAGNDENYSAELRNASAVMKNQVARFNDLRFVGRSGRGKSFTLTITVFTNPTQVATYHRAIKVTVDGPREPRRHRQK
Setting: whole hairpin DNA, median over replicate spots
GAGGCCTGTTGCGGTTGGCCTCCTGGCCAACCGCAACAGGCCTCACACTC (5mC at 12 32): 4920 a.u.
CTCAGTTCTGTAGGCTGGACTCCTGTCCAGCCTACAGAACTGAGACACTC: 4100 a.u.
CTCAGTTCTGTCGGCTGGACTCCTGTCCAGCCGACAGAACTGAGACACTC (5mC at 32): 4150 a.u.
GAGGCCTGTCGCGGTTGGGCTCCTGCCCAACCGCGACAGGCCTCACACTC (5mC at 26): 5670 a.u.
GAGGCCTGTCCCGGTTGGCCTCCTGGCCAACCGGGACAGGCCTCACACTC (5mC at 11): 5040 a.u.
CTCAGTTCCGTGGGCTGGACTCCTGTCCAGCCCACGGAACTGAGACACTC (5mC at 9 35): 4360 a.u.
GAGGCCCAACCGCAAGAGCCTCCTGGCTCTTGCGGTTGGGCCTCACACTC: 10100 a.u.
CAGGCCTGTCGCGGTTGGCCTCCTGGCCAACCGCGACAGGCCTGACACTC (5mC at 1): 5890 a.u.
GAGGCCTGTTGTGGTTCGCCTCCTGGCGAACCACAACAGGCCTCACACTC: 4900 a.u.
GAGGCCTGTTGCGGTAGGCCTCCTGGCCTACCGCAACAGGCCTCACACTC: 5270 a.u.
GAGGCCTGTTGTGGCGGGCCTCCTGGCCCGCCACAACAGGCCTCACACTC (5mC at 15 29): 5330 a.u.
GAGGCCTGGTGTGGTTGGCCTCCTGGCCAACCACACCAGGCCTCACACTC (5mC at 36): 5540 a.u.

Block 6 — target: CCNE1, cyclin fold, Cln2 fusion (human); method: yeast growth competition, sequencing; matrix: yeast; setting: weak parent motif; reference: not given; reading: higher = stronger binding; endpoint: normalised enrichment score
Starting sequence: DNAH7 docking peptide (human); HELFQRLDFDNDG
E2A: 0.131
D8A: 0.118
R6A: 0.234
Q5A: 0.237
D10A: 0.18
L3A: 0.0896
